Measurements collected from several papers.
Each line is one published result; not all experiments were run side by side. ± marks the error that the study gave.

Compound	assay	system	conditions	scale	endpoint	result
O=C(Nc1ccccc1)C1CCN(C(=O)Oc2cccnc2)CC1	psychotropic effects VAS	healthy women	20 mg	reference: pre-dose baseline, direction not given	change in Suspicious score	1.1
C[C@]1(CO)Cc2ncn(-c3ccc(C#N)c(Cl)c3)c2C(=O)O1	–	human, Chinese	80 mg single dose	–	subjects with drug-related orthostatic hypotension	0%
N#C[C@@H]1CC(F)(F)CN1C(=O)CNC(=O)c1ccnc2ccc(OCCCN3CCN(C(=O)CN4CCN(CC(=O)[O-])CCN(CC(=O)[O-])CC4)CC3)cc12.[18F-].[Al+3]	–	healthy rat, kidney	iv, 2 h	–	tissue uptake	0.7 ± 0.09 %ID/g
CC(C)(C)c1cc(-n2nc3ccccc3n2)c(O)c(C(C)(C)C)c1	–	human aged 16-21 years	concentration not given, foundation, 95th percentile	–	daily dermal exposure dose	3.21 ng/kg/day
O.O.O.O.O.O.[Cl-].[Cl-].[Co+2]	–	rat male, urine	oral, 10 mg/kg single, day 1	–	urinary cobalt creatinine-corrected	1.21 µg/µmol creatinine
CO[C@H]1C[C@@H]2CC[C@@H](C)[C@@](O)(O2)C(=O)C(=O)N2CCCC[C@H]2C(=O)O[C@H]([C@H](C)C[C@@H]2CC[C@@H](OC(=O)NCCOCCOCCOCCOCCOCCOCCOCCOCCC(=O)N3CCc4cc(Cn5nc(-c6ccc7oc(N)nc7c6)c6c(N)ncnc65)ccc4C3)[C@H](OC)C2)C[C@@H](O)[C@H](C)/C=C(\C)[C@@H](O)[C@@H](OC)C(=O)[C@H](C)C[C@H](C)/C=C/C=C/C=C/1C	phase 1 dose escalation, item: mucositis	advanced solid tumour patients	intravenous, 16 mg weekly, grade ≥3	–	TRAE incidence	25%
COc1cc2c(Oc3ccc4[nH]c(C)cc4c3F)ccnc2cc1OCC1(N)CC1	–	paediatric recurrent refractory sarcoma	8 mg/kg	–	grade 3 Neutropenia	0%
O=C1Nc2cc3[nH]nc(-c4ccncc4)c3cc2CN1Cc1ccccc1	CTCAE v4.03	advanced solid tumour patients	intravenous, 3.6 mg/kg, schedules 1/2	–	patients with acneiform dermatitis	0%
C[C@@H](NC(=O)N1C(=O)[C@H](Cc2ccnc(N)c2)[C@H]1C(=O)O)C1CCCCC1	–	healthy adult Chinese volunteers	continuous intravenous infusion, 1.0 mg/kg/h, 5-day infusion, CTCAE 5.0 grading	–	incidence of administration site extravasation	0%
O=C(c1ccc(F)c(F)c1Nc1ccc(I)cc1F)N1CC(O)([C@@H]2CCCCN2)C1	–	human patients	oral, 1 mg/kg, patients aged at least sample B years	–	patients with SAE leading to withdrawal	0%
COc1ccc(-c2c(-c3ccc(C#N)c(F)c3)nc(N3CCC(N)CC3)n(C)c2=O)cc1F	item: Thrombocytopenia	human patients	oral, dose not given, dose escalation, NG	–	serious adverse event incidence	8%
O=c1ccc2ncc(=O)n3c2n1C[C@H]3CN1CCC(NCc2cc3c(cn2)OCCC3)CC1	–	healthy human volunteers, plasma	oral, dose not given, added: itraconazole	reference: compound alone	increase in AUC and Cmax	40 to 50%
CCc1ccc(CC/C=C/c2ccc3c(c2)C(=O)CC3)cc1	–	Sprague-Dawley rat, female, serum	oral, 120 mg/kg/day, 14 days	–	potassium	4.38 mM
CCC[C@@](N)(CO)CCc1ccc(OCCCCCC(C)C)cc1	–	hound dogs, male	oral, 5 mg/kg, capsule, fed state, geometric mean	–	AUC(0-inf)	5.45 µM·h

A few entries again:
Compound	assay	system	conditions	scale	endpoint	result
O.O.O.O.O.O.[Cl-].[Cl-].[Co+2]	–	rat male, urine	oral, 10 mg/kg single, day 1	–	urinary cobalt creatinine-corrected	1.21 µg/µmol creatinine
